Assay results from different studies.
Lines come from different studies, so protocols differ. “And” joins repeats or separate records; there may be more than shown. ± gives the spread as reported.
CHRM1: Muscarinic acetylcholine receptor M1 (CHRM1, Homo sapiens, UniProt P11229)
Chain of UniProt P11229 (whole entry, looked up): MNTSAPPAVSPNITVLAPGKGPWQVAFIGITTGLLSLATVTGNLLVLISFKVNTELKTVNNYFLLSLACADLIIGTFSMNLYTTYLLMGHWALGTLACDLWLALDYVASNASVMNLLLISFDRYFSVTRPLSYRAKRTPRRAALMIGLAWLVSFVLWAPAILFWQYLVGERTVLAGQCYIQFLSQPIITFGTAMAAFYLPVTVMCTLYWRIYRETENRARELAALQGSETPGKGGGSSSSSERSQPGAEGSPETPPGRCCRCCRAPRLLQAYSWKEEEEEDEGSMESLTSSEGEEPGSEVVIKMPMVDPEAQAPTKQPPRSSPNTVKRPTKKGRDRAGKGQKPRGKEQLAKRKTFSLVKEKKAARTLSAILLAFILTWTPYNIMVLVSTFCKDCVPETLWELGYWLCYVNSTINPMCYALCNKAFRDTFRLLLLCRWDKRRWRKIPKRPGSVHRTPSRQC

Cn1c(-c2ccc(C(N)=O)cc2F)nnc1C(C)(C)Oc1c(F)cc(Cl)cc1F
AUC(0-inf) mean (young non-Japanese subjects, plasma; oral, 20 mg single dose, day 1): 3010 ng·h/mL

Oc1ccc(/C=C/c2ccccc2)cc1O
linear absorbance range (water; aggregation above range): ≥ 50 µM

CS/C(S)=N/CCCC[S+](C)[O-] (racemic)
mRNA fold change (RT-PCR, refers to: Cyp2e1; female Sprague-Dawley rat, liver; oral gavage, 200 mg/kg, dosed for four days; reference: vehicle): 0.902

CC(C)C[C@H](N)C(=O)N1CCC[C@@H](NCC(=O)N2CCC[C@H]2C(N)=O)C1
pKa1 (capillary electrophoresis-MS; water): 5.13

O=C(O)[C@H](c1ccccc1Cl)N1CCc2sccc2C1
deviation from nominal (HPLC-MS/MS; feline EDTA plasma; 6 h, -20 °C, storage stability): -6%

CC(C)NC(=O)COc1cccc(-c2nc(Nc3ccc4[nH]ncc4c3)c3ccccc3n2)c1
half-life (male C57BL/6 mouse, brain; oral, 100 mg/kg, one-compartment model): 2.12 h

CCCC[C@H](NC(C)=O)C(=O)N[C@H]1CCC(=O)NC[C@@H](C(=O)N[C@@H](Cc2c[nH]c3ccccc23)C(N)=O)NC(=O)[C@H](CCCNC(=N)N)NC(=O)[C@@H](Cc2ccccc2)NC(=O)[C@H](Cc2c[nH]cn2)NC1=O
CL/F (CD Sprague Dawley rat, female, plasma; subcutaneous, 1.0 mg/kg daily, day 1): 18.4 mL/min/kg

O=C(CCCCCCC(=O)Nc1ccccc1)NO
AUC(0-7 h) (patients, serum; oral, 400 mg, cycle 1, with: flavopiridol): 8.32 µM·h

Nc1cc(F)ccc1NC(=O)c1ccc(CNC(=O)/C=C/c2cccnc2)cc1
renal clearance (Japanese patients, urine; oral, 40 mg, cycle 1 day 1, arithmetic mean): 29.2 mL/min

O=c1cc(-c2ccccc2OCc2ccc([N+](=O)[O-])cc2)ncn1C1CCCCC1O (centres unmarked)
change in baseline activity (CHRM1; allosteric agonist, IP1 accumulation; CHO-M1 cells; 10 µM, unit not given; reference: maximum ACh response): 67.4 ± 2.8

C=CC(=O)Nc1cc(Nc2ncc(C(=O)OC(C)C)c(-c3cn(C)c4ccccc34)n2)c(OC)cc1N(C)CCN(C)C
terminal half-life (human, fasted; oral, 80 mg single dose, geometric mean): 14.3 h

acyl ghrelin (human)
brain/serum ratio (mouse, Ghsr knockout, cerebellum; intravenous, 10 min): 7.03 µL/g

CC(=O)N[C@@H](CCCNC(=N)N)C(=O)N[C@H](C(=O)N[C@@H](CC(=O)O)C(=O)N[C@H](C(=O)N[C@@H](CCCNC(=N)N)C(=O)N[C@H](C(=O)N[C@@H](CC(=O)O)C(=O)N[C@H](C(N)=O)C(C)C)C(C)C)C(C)C)C(C)C
viscosity (rotational rheometry; 2% w/v aqueous solution; shear rate range 1-1000 s^-1): 1680 ± 43.3 Pa·s

CCCOc1ccc([C@H]2CNC(=O)N2c2ccc3[nH]cnc3c2)cc1
effective half-life (human, elderly, fasted, plasma; oral, 500 mg twice daily, tablet, day 11, 2 to 12 h postdose, geometric mean): 2.78 h

CC(C)(Sc1ccncc1-c1ccc(C#N)c2ccccc12)C(=O)O
renal clearance (male, urine; oral, 15 mg, 72 h, severe renal impairment): 2.86 mL/min

CC(=O)N[C@H](CSSC[C@H](N)C(=O)O)C(=O)N[C@H](C)C(=O)N[C@H](CCCNC(=N)N)C(=O)N[C@H](CCCNC(=N)N)C(=O)N[C@H](CCCNC(=N)N)C(=O)N[C@H](C)C(=O)N[C@H](CCCNC(=N)N)C(N)=O
hemodialysis rate constant kAB (in vitro hemodialysis; buffered aqueous solution): 0.118 min⁻¹

CC(C)[C@H](NC(=O)[C@@H]1CCCN1C(=O)[C@H](CCCNC(=N)N)NC(=O)[C@H](CS)NC(=O)[C@H](Cc1c[nH]c2ccccc12)NC(=O)[C@H](CCCNC(=N)N)NC(=O)[C@@H](Cc1ccccc1)NC(=O)[C@H](Cc1c[nH]cn1)NC(=O)[C@H](CCC(=O)O)NC(=O)[C@H](CS)NC(=O)[C@H](CS)NC(=O)[C@H](CCCCN)NC(=O)[C@@H]1CC(=O)N[C@@H](CCCNC(=N)N)C(=O)N[C@@H]([C@@H](C)O)C(=O)N[C@@H](CC(=O)O)C(=O)N[C@H](Cc2ccc(O)cc2)C(=O)N1)C(N)=O [technetium-99m labelled]
tissue uptake (C57 mouse, female, B16/F1 melanoma, skin; intravenous, 2 h, with: NDP-MSH 10 µg co-injected): 1.21 ± 0.64 %ID/g

Cc1nc(Nc2ncc(C(=O)Nc3c(C)cccc3Cl)s2)cc(N2CCN(CCO)CC2)n1
concentration (C57BL/6 mouse, male, gall bladder; oral, 10 mg/kg, 5 min, undetectable): < 10 ng/mL

CC(C)NC[C@@H](C(=O)N1CCN(c2ncnc3c2[C@H](C)C[C@H]3O)CC1)c1ccc(Cl)cc1
apparent clearance (human, Moderate hepatic function, plasma; oral, 100 mg single dose, NCI classification, geometric mean): 97.1 L/h

Cc1cc(C)c(C#N)c(SCC(=O)c2ccc(F)cc2F)n1
microsomal CLint (metabolic stability; human, liver microsomes; 0.5 µM, pH 7.4): 690 µL/min/mg

CC[C@H](C)[C@H](NC(=O)[C@H](Cc1ccccc1)NC(=O)[C@H](CC(=O)O)NC(=O)[C@H](CCCNC(=N)N)NC(=O)[C@H](C)NC(=O)[C@H](C)NC(=O)[C@H](CC(C)C)NC(=O)[C@H](CC(N)=O)NC(=O)[C@H](CC(=O)O)NC(=O)[C@H](CC(C)C)NC(=O)[C@@H](NC(=O)[C@@H](NC(=O)[C@H](CC(N)=O)NC(=O)[C@H](CCSC)NC(=O)[C@H](CCC(=O)O)NC(=O)[C@H](CC(=O)O)NC(=O)[C@H](CO)NC(=O)[C@H](Cc1ccccc1)NC(=O)[C@H](CO)NC(=O)CNC(=O)[C@H](CC(=O)O)NC(=O)CNC(=O)[C@@H](N)Cc1c[nH]cn1)[C@@H](C)O)[C@@H](C)CC)C(=O)N[C@@H](CC(N)=O)C(=O)N[C@@H](Cc1c[nH]c2ccccc12)C(=O)N[C@@H](CC(C)C)C(=O)N[C@H](C(=O)N[C@@H](CCC(N)=O)C(=O)N[C@H](C(=O)N[C@@H](CCCCN)C(=O)N[C@H](C(=O)N[C@H](C(=O)N[C@@H](CC(=O)O)C(=O)O)[C@@H](C)O)[C@@H](C)CC)[C@@H](C)O)[C@@H](C)CC
V/F reduction (Japanese patients, moderate renal impairment; subcutaneous, 0.05 mg/kg; reference: normal renal function): 24%

O=C(/C=C/c1ccc(O)c2c1[C@H](C(=O)O)[C@@H](c1ccc(O)c(O)c1)O2)O[C@H](Cc1ccc(O)c(O)c1)C(=O)O
CL/F (UPLC-MS/MS; Wistar rat, microcirculation dysfunction model, plasma; oral, 100 mg/kg Salvia miltiorrhiza stem-leaf extract FT): 209 ± 132 mL/min/kg

CCCC[C@@H]1NC(=O)[C@@H](NC(=O)[C@H](CCC(=O)O)NC(=O)CNC(=O)CN2CCN(CC(=O)O)CCN(CC(=O)O)CCN(CC(=O)O)CC2)CCCCNC(=O)C[C@@H](C(N)=O)NC(=O)[C@H](C(C)C)NC(=O)[C@@H]2CCCN2C(=O)[C@H](CCCNC(=N)N)NC(=O)CNC(=O)[C@H](Cc2c[nH]c3ccccc23)NC(=O)[C@H](CCCNC(=N)N)NC(=O)[C@@H](Cc2ccccc2)NC(=O)[C@H](Cc2c[nH]cn2)NC(=O)[C@H](CCC(=O)O)NC1=O [indium-111 labelled]
tissue uptake (normal C57 mice, blood; intravenous, 0.037 MBq, 4 h): 0.02 ± 0.02 %ID/g

Cc1cc(-c2cc(OC(=O)c3ccccc3)ccc2Cl)cc2nnc(Nc3ccc(OCCN4CCCC4)cc3)nc12
concentration (C57BL/6 mouse, retina; topical, 1%, 24 h): 16 nM

Cc1cc(Nc2ncc(Cl)c(Nc3ccccc3S(=O)(=O)C(C)C)n2)c(OC(C)C)cc1C1CCNCC1
Css,min (refers to: total drug; human, plasma; oral, 750 mg/day): 2100 nM and 920 nM and 766 nM

O=C(O)Cc1ccccc1Nc1c(Cl)cccc1Cl
remaining compound (human liver microsomes; 30 min, with: NADPH): 33 ± 4.9%

CNC(=O)c1ccc(-c2cnc3ncc(Cc4ccc5ncccc5c4)n3n2)cc1F
Cmax (geometric mean) (human, mild hepatic impairment (Child-Pugh A), plasma; oral, 200 mg single dose): 1260 ng/mL

O=c1cc(-c2ccccc2OCc2ccc(Br)cc2)ncn1C1CCCCC1O (centres unmarked)
change in baseline activity (CHRM1; allosteric agonist, IP1 accumulation; CHO-M1 cells; 10 µM, unit not given; reference: maximum ACh response): 73.4 ± 4.1

C[C@]12CC[C@@H]3c4ccc(O)cc4CC[C@H]3[C@@H]1C[C@@H](O)[C@@H]2O
maximum serum concentration (GC-MS; breast cancer women on NSAI, serum; vaginal, 0.03 mg, 2 h, day 0): 0.168 ng/mL

[2H]C([2H])([2H])Oc1cc2c(cc1OC([2H])([2H])[2H])C1CC(=O)C(CC(C)C)CN1CC2 (centres unmarked)
geometric mean ratio AUC0-t (refers to: total (α+β)-HTBZ; human, fasted; oral, 15 mg single dose; reference: tetrabenazine 25 mg fasted): 114%

CCCCCCCCCCCCCCCCCCOP(=O)([O-])OC1CC[N+](C)(C)CC1
Tmax (rhesus monkey, male, plasma; oral, 7 mg/kg, single dose, mean of 3): ~19 h

COC(=O)c1ccc2c(c1)NC(=O)/C2=C(\Nc1ccc(N(C)C(=O)CN2CCN(C)CC2)cc1)c1ccccc1
AUC(0-tz) (human, Child-Pugh A hepatic impairment, plasma; oral, 100 mg, single dose, fed; adjusted geometric mean): 193 ng·h/mL

CNC(=O)c1c(C)oc2cc(Oc3ncnc4cc(OC)c(OC)cc34)ccc12
participants with headache (human, moderate hepatic impairment; oral, 2 mg): 37.5%

CC(=O)O[C@H]1C(=O)[C@@]2(C)[C@H]([C@H](OC(=O)c3ccccc3)[C@]3(O)C[C@H](OC(=O)[C@H](O)[C@@H](NC(=O)c4ccccc4)c4ccccc4)C(C)=C1C3(C)C)[C@]1(OC(C)=O)CO[C@@H]1C[C@@H]2O
clearance (HPLC; Sprague Dawley rat, male, plasma; intravenous, 7 mg/kg): 20 mL/min/kg

C[C@H](O)c1cc(C(=O)N[C@@H](C)Cn2ccc(-c3ccc(C#N)c(Cl)c3)n2)n[nH]1
effective half-life (human; oral, 600 mg twice daily, with food): 15.3 h

Repeated from above:
CC(C)NC(=O)COc1cccc(-c2nc(Nc3ccc4[nH]ncc4c3)c3ccccc3n2)c1
half-life (male C57BL/6 mouse, brain; oral, 100 mg/kg, one-compartment model): 2.12 h

CCCC[C@H](NC(C)=O)C(=O)N[C@H]1CCC(=O)NC[C@@H](C(=O)N[C@@H](Cc2c[nH]c3ccccc23)C(N)=O)NC(=O)[C@H](CCCNC(=N)N)NC(=O)[C@@H](Cc2ccccc2)NC(=O)[C@H](Cc2c[nH]cn2)NC1=O
CL/F (CD Sprague Dawley rat, female, plasma; subcutaneous, 1.0 mg/kg daily, day 1): 18.4 mL/min/kg

O=C(CCCCCCC(=O)Nc1ccccc1)NO
AUC(0-7 h) (patients, serum; oral, 400 mg, cycle 1, with: flavopiridol): 8.32 µM·h

Nc1cc(F)ccc1NC(=O)c1ccc(CNC(=O)/C=C/c2cccnc2)cc1
renal clearance (Japanese patients, urine; oral, 40 mg, cycle 1 day 1, arithmetic mean): 29.2 mL/min
